Results of several laboratories.
Each line is one published result; not all experiments were run side by side. Values joined by “and” are separate records of one study, mostly repeats; a detail may differ.
Target: Casein kinase I isoform alpha (CSNK1A1, Homo sapiens, UniProt P48729)

COc1cc(Nc2nc(C)cc(-c3cnn4nc(OC)ccc34)n2)cc(C(F)(F)F)c1
remaining activity (inhibitor; 1 µM; relative to: control): 77%

Cc1ccc(-c2c(/C=C(\C#N)C(=O)NC(C)C)n(CCCO)c3ncnc(N)c23)cc1
remaining binding (cell-free assay, competition with immobilised ligand; 1 µM): 100%

COCC12C(=O)NC3C4(C(OC)CC1O)C1CC5(O)C(OC)C(O)C(OC(C)=O)(C1C5OC(=O)c1ccccc1)C3(O)C(OC)C24 (centres unmarked)
remaining activity (kinase activity, inhibitor, ProQinase kinase profiling; 25 µM; relative to: control): 93% and 107%

CCn1cc(C(=O)O)c(=O)c2c(N)c(F)c(NC3CCCCC3)cc21
inhibition (kinase activity; 0.1 µM, together with: ATP at Km): 3.4%

COc1c(Cl)cccc1Nc1c(-c2ccncc2C#C[C@@]2(C)CCCN2C(=O)/C=C/CN(C)C)[nH]c2c1C(=O)NCC2
remaining binding (cell-free assay, competition with immobilised ligand; 3 µM): 84%

COc1cc(-n2cc3cc(F)cc(C(N)=O)c3n2)cc(Cl)c1C1CC(O)(CCO)Cc2ccccc21 (centres unmarked)
inhibition (enzyme activity, inhibitor; 10 µM): 0.4%

CNC(=O)C1CCN(c2cc(C)c(F)cc2NC(=O)c2ccc(-c3cc(O)ccc3C)c(C)c2)CC1
remaining binding (binding, competition with immobilised ligand; 1 µM): 22%

COc1ccc(O)cc1-c1c[nH]c2ncc(-c3cncc(C(=O)N(C)C)c3)cc12
inhibition (binding, competition with immobilised ligand; 0.2 µM): 17.5%

O=c1c(-c2ccc(Cl)c(CN3CCOCC3)c2)coc2cc(O)ccc12
remaining activity (enzyme activity, inhibitor; 1 µM): 100%

O=C(Cc1ccc(OCc2ccccc2)cc1)NC1(C(=O)O)CCN(C(=O)c2ccc(-c3cccc(Cl)c3)cc2)CC1
activity vs control (enzyme activity, inhibitor; 10 µM): 79%

Nc1ncc(-c2cc(-c3cnn(CC(F)(F)F)c3)ncc2F)nc1C(=O)NC1CNCC(F)C1 (centres unmarked)
remaining activity (enzyme activity; 1 µM; relative to: DMSO control): 82.6%

C=CC(=O)N1CCc2ccc(-n3c(=O)ccc4cnc5ccc(-c6cnn(C)c6)cc5c43)cc21
remaining binding (KINOMEscan; 1 µM; relative to: DMSO control): 97%

Nc1ncc2c(n1)-c1c([nH]c3ccc(C4=CCOCC4)cc13)CCC2
remaining binding (binding, competition with immobilised ligand; 1 µM): 94%

C=CC(=O)N1CCCC(n2c(=O)c3ncccc3n(Cc3ccc(Oc4ccccc4)cc3)c2=O)C1 (centres unmarked)
remaining binding (cell-free assay, competition with immobilised ligand; 1 µM): 100%

C=CC(=O)N1Cc2nc(-c3cc(-c4cc(Cl)cnc4Cl)c(F)cc3F)n(-c3ccncn3)c2C1
inhibition (cell-free assay, inhibitor; 1 µM): 11.7%

CCN1CCN(Cc2ccc(C(=O)Nc3ccc(C)c(NCc4cnc5[nH]ccc5c4OC)c3)cc2C(F)(F)F)CC1
remaining binding (binding, competition with immobilised ligand; 1 µM): 66%

NC(=O)[C@@H](O)C[C@H]1CCc2sc3ncnc(O[C@H]4CC[C@H](N5CCOCC5)CC4)c3c21
inhibition (enzyme activity, inhibitor; 10 µM): 17%

CNC1C[S+]2CC[S+]3CC[S+](C1)[Ru-4]321([N]=C=S)[n]2c3ccc(OC)cc3c3c4c(c5cc(F)c[n+]1c5c32)C(=O)NC4=O (centres unmarked)
remaining binding (KinomeScan; 0.1 µM; relative to: untreated): 90%

CN1CCN(Cc2ccc(-c3ccc(CO[C@H]4CCC[C@@H]4NC(=O)c4cc(-c5cnn(C)c5)cnc4N)cc3)cc2)CC1
inhibition (enzyme activity, inhibitor; 0.1 µM): 9%

COc1cc(Nc2nccc(-c3cnn4nc(OC)ccc34)n2)cc(C(F)(F)F)c1
remaining binding (binding, competition with immobilised ligand; 1 µM): 74%

NC(=O)C[C@H]1CCc2sc3ncnc(O[C@H]4CC[C@H](N5CCOCC5)CC4)c3c21
inhibition (enzyme activity, inhibitor; 10 µM): 4%

CC(C)=CC1OC(C)(C)C2C=C3C(=O)C(Cl)=CC(O)C3C3C(O)C4OC4C(=O)C132 (centres unmarked)
remaining binding (cell-free assay, competition with immobilised ligand; 10 µM): 78%

Cc1cnc2nc1Nc1cccc(c1)COC/C=C/COCc1cc(ccc1OCCN1CCOCC1)N2
remaining binding (binding; 0.1 µM): 99%

For quick reference, copied from above:
COc1c(Cl)cccc1Nc1c(-c2ccncc2C#C[C@@]2(C)CCCN2C(=O)/C=C/CN(C)C)[nH]c2c1C(=O)NCC2
remaining binding (cell-free assay, competition with immobilised ligand; 3 µM): 84%

COc1cc(-n2cc3cc(F)cc(C(N)=O)c3n2)cc(Cl)c1C1CC(O)(CCO)Cc2ccccc21 (centres unmarked)
inhibition (enzyme activity, inhibitor; 10 µM): 0.4%

CNC(=O)C1CCN(c2cc(C)c(F)cc2NC(=O)c2ccc(-c3cc(O)ccc3C)c(C)c2)CC1
remaining binding (binding, competition with immobilised ligand; 1 µM): 22%
